Measurements pooled from the literature.
Values joined by “and” are separate records of one study, mostly repeats; a detail may differ. ± marks the error that the study gave.

SMILES | target or system | test | system | setting | how to read | endpoint | value
C/C(N)=N/C(=N\S(=O)(=O)c1ccc(C(F)(F)F)cc1)N1C[C@H](c2ccccc2)C(c2ccc(Cl)cc2)=N1 | – | – | C57BL/6 mouse, male, brain | intravenous, 10 mg/kg | reference: brain over plasma | tissue/plasma ratio | 0.05
N#Cc1cccc(-c2ccc3ncc(-c4cc(F)cc(F)c4)c(N4CCC(NC(=O)OC5OC(C(=O)O)C(O)C(O)C5O)CC4)c3c2)c1O (centres unmarked) | – | – | human, urine and faeces | oral, 20 mg, added: 14C-labelled drug | reference: dose | excreted radioactivity | 2.7%
O=c1c(O)c(-c2ccc(N(c3ccccc3)c3ccccc3)cc2)oc2cc3ccccc3cc12 | – | – | DMSO | added: visible light | – | CO release quantum yield | 0.006
C=CC(=O)Nc1cccc(Cn2ncc3cnc(Nc4cnn(CCOC)c4)nc32)c1 | SIK2 human | binding, KINOMEscan | – | 100 nM | lower = stronger binding | percent of control | 81%
CN(C)S(=O)(=O)c1ccc(S(=O)(=O)N2CCC(n3c(=O)[nH]c4ccccc43)CC2)cc1 | – | HPLC | soya oil | 24 h, 20 °C | – | solubility | < 2 µg/mL
COC(=O)C1=CNC=C(C(=O)OC)C1c1ccc(F)c(C(F)(F)F)c1 | – | – | male Sprague-Dawley rat, plasma | oral, 50 mg/kg | – | AUC(0-t) | 3480 ng·h/mL
COc1cccc(OC)c1-c1cc(C(=O)NC2(C(=O)O)C3CC4CC(C3)CC2C4)nn1-c1ccc(C(=O)N(C)CCCN(C)C(=O)[C@H](CCCCNC(=O)[C@H](CC(C)C)NC(=O)C2OC2C(=O)O)NC(=O)CN2CCN(CC(=O)[O-])CCN(CC(=O)[O-])CCN(CC(=O)[O-])CC2)cc1C(C)C.[177Lu+3] (mixture of isomers) | – | – | mouse, HT-29 xenograft | 72 h post injection, biodistribution | reference: tumour over lung uptake | tumour-to-lung ratio | 7.65
CC(C)OCCOCc1ccc(OCC(O)CN(N=O)C(C)C)cc1 (centres unmarked) | Salmonella typhimurium | Ames test | TA100 | 158 µg/plate, 30 % hamster S9 | reference: solvent control | revertant fold increase | 1.7 fold
O=C(Nc1cnccc1-c1ccc([18F])nc1)c1ccnc(NC(=O)C2CC2)c1 | – | – | mice, transgenic, GSK-3β, early-stage, bone | intravenous, dose not given, 120 min | – | SUV | 0.346
COc1cccc(OC)c1-c1cc(C(=O)NC2(C(=O)O)C3CC4CC(C3)CC2C4)nn1-c1ccc(C(=O)N(C)CCOCCN(C)C(=O)[C@H](CCCCNC(=O)[C@H](CC(C)C)NC(=O)C2OC2C(=O)O)NC(=O)CN2CCN(CC(=O)[O-])CCN(CC(=O)[O-])CCN(CC(=O)[O-])CC2)cc1C(C)C.[177Lu+3] (mixture of isomers) | – | – | mouse HT-29 xenograft | 4 h, biodistribution | reference: tumour over small intestine | tumour-to-small intestine ratio | 6.64
C=CC(=O)Nc1cc(Nc2nccc(-c3c[nH]c4ccccc34)n2)c(OC)cc1N(C)CCN(C)C | – | storage stability | human dried blood spot | 30 d, on ice, HQC level | – | recovery | 55.3%
Clc1cc(NCc2ccco2)c2cccc(OCC3COCCO3)c2n1 (centres unmarked) | – | – | C57BL/6 mouse, heart | oral, 30 mg/kg, 0.5 h | reference: heart over plasma | tissue/plasma ratio | 0.48
CC(C)(O)c1ncc([S@](N)(=O)=NC(=O)Nc2c3c(cc4c2CCC4)CCC3)s1 | – | measured: infections and infestations | healthy human | oral, 100 mg, 14 days, SDD formulation, once daily | – | subjects with TEAEs | 17%
Cc1ncsc1-c1ccc(C(C)NC(=O)C2CC(O)CN2C(=O)C(NC(=O)CCCCCCCCCCN2CCCC(Nc3ncc(Cl)c(Nc4ccccc4S(=O)(=O)C(C)C)n3)C2)C(C)(C)C)cc1 (centres unmarked) | 22Rv1 | RNA-seq, measured: ZNF137P mRNA | – | concentration not given | reference: DMSO | log2 fold change | -2.69
CCCC[C@H](NC(=O)CNC(=O)CNC(=O)[C@H](CCCCNC(=O)[C@H](CC(=O)O)NC(=O)C(C)c1ccc(CC(C)C)cc1)NC(=O)CN1CCN(CC(=O)O)CCN(CC(=O)O)CCN(CC(=O)O)CC1)C(=O)N[C@H]1CC(=O)NCCCC[C@@H](C(N)=O)NC(=O)[C@H](Cc2c[nH]c3ccccc23)NC(=O)[C@H](CCCNC(=N)N)NC(=O)[C@@H](Cc2ccccc2)NC(=O)[C@H](Cc2c[nH]cn2)NC1=O (some centres unmarked) [lutetium-177 labelled] | – | – | C57 mice, tumour | intravenous, 0.037 MBq, 4 h | reference: liver | tumour-to-tissue ratio | 9.73
Cc1n[nH]c(C)c1CCCOc1cc(C(=O)NCCCCC(NC(=O)CN2CCN(CC(=O)[O-])CCN(CC(=O)[O-])CCN(CC(=O)[O-])CC2)C(=O)NCC2CCC(C(=O)NC(Cc3ccc4ccccc4c3)C(=O)NCCCCC(NC(=O)NC(CCC(=O)O)C(=O)O)C(=O)O)CC2)ccc1F.[68Ga+3] (centres unmarked) | – | micro-PET/CT | mouse 22Rv1 xenograft, tumour | 1 h post-injection | – | maximum tumour uptake | 14.8 ± 1.53 %ID/g
C=CC(=O)Nc1cc(Nc2nccc(-c3cn(C)c4ccccc34)n2)c(OC)cc1N(C)CCNC | – | storage stability | human plasma | 72 h, on ice, LLOQ level | – | recovery | 73.3%
O=C(c1ccccc1)N1C(c2ccc(OCC3CCN(CCCF)C3)cc2)c2ccc(O)cc2CC12CC2 (centres unmarked) | – | – | C57BL/6J mice, plasma | oral, 25 mg/kg | – | AUC extrapolated percentage | 1.33% and 0.303%

SMILES | target or system | test | system | setting | how to read | endpoint | value
CCCCCCCC/C=C\CCCCCCCCO[Si](CCCCN(C)C)(OCCCCCCCC/C=C\CCCCCCCC)OCCCCCCCC/C=C\CCCCCCCC | – | – | – | pH 7.5, formulated | – | zeta potential | -1.35 mV
COc1cccc(OC)c1-c1cc(C(=O)NC2(C(=O)O)C3CC4CC(C3)CC2C4)nn1-c1ccc(C(=O)NCCNC(=O)[C@H](CCCCNC(=O)[C@H](CC(C)C)NC(=O)C2OC2C(=O)O)NC(=O)CN2CCN(CC(=O)[O-])CCN(CC(=O)[O-])CCN(CC(=O)[O-])CC2)cc1C(C)C.[177Lu+3] (mixture of isomers) | – | – | mouse HT-29 xenograft | 72 h, biodistribution | reference: tumour over small intestine | tumour-to-small intestine ratio | 16.6
CCCC[C@H](OC(C)=O)c1ccccc1C(=O)O | – | – | beagle dog, both sexes, whole blood | intravenous, 1.5 mg/kg, day 7 | – | steady-state clearance | 23.7 ± 2.28 mL/min/kg
O=C([O-])CN1CCN(CC(=O)[O-])CCN(CC(CCCc2ccccc2[N+](=O)[O-])N(CC(=O)[O-])CC(=O)[O-])CC1.[90Y+3] (centres unmarked) | – | HPLC | human serum | 23 h, pH 7, 37 °C | – | intact radiolabelled complex | 100%
CC[C@H](C)[C@H](NC(=O)[C@H](CC(N)=O)NC(=O)[C@@H](N)CCSC)C(=O)N[C@@H](CCSC)C(=O)N[C@@H](CC(=O)O)C(=O)N[C@@H](Cc1ccccc1)C(=O)N[C@@H](CC(N)=O)C(=O)N[C@H](C(=O)N[C@@H](CCCCN)C(=O)N[C@@H](CCCCN)C(=O)N[C@@H](CC(C)C)C(=O)N[C@@H](C)C(=O)N[C@@H](C)C(=O)N[C@@H](CC(=O)O)C(=O)N[C@@H](C)C(=O)NCC(=O)N[C@H](C(=O)N[C@@H](Cc1c[nH]c2ccccc12)C(=O)N[C@@H](CC(C)C)C(=O)N[C@@H](CO)C(=O)N[C@@H](CCCNC(=N)N)C(=O)N[C@@H](C)C(=O)N[C@H](C(=O)N[C@@H](CCC(N)=O)C(=O)N[C@@H](Cc1ccccc1)C(=O)N[C@H](C(=O)N[C@@H](CCC(=O)O)C(=O)N[C@@H](CCC(=O)O)C(=O)N[C@@H](CCCCN)C(=O)N[C@@H](CC(C)C)C(=O)NCC(=O)N[C@@H](CCC(N)=O)C(=O)N[C@@H](C)C(N)=O)[C@@H](C)O)C(C)C)[C@@H](C)O)C(C)C | – | – | water | – | – | folding free energy | 2.99 kcal/mol
C=CC[C@@H]1/C=C(\C)C[C@H](C)C[C@H](OC)[C@H]2O[C@@](O)(C(=O)C(=O)N3CCCC[C@H]3C(=O)O[C@H](/C(C)=C/[C@@H]3CC[C@@H](O)[C@H](OC)C3)[C@H](C)[C@@H](O)CC1=O)[C@H](C)C[C@@H]2OC | – | – | kidney transplant recipients, CYP3A5 *3/*3, whole blood | oral, dose not given, early phase, limited sampling | – | dose-normalized AUC(0-12h) | 144 ± 57.5 ng·h/mL
CCCCN1C(=O)c2cccc3c(NCCCCCCCCN4CCOCC4)ccc(c23)C1=O | – | – | dioxane | – | – | fluorescence lifetime | 10.5 ns
CCN(CC)CC#CCNc1ccnc2cc(Cl)ccc12 | Salmonella typhimurium | mini-Ames test | TA102 | 250.0 µg/well, without S9 | – | revertants per well | 74
Nc1ncc(-c2cc(-c3cnn(CC(F)(F)F)c3)ncc2F)nc1C(=O)NC1CNCC(F)C1 (centres unmarked) | TGFBR2 | KINOMEscan | – | 1 µM | reference: DMSO control | remaining binding | 86%
COC1CN([C@H]2CC[C@H]([C@@]3(C)Oc4c(Cl)cc(C(=O)NCc5c(SC)cc(C)[nH]c5=O)c(C)c4O3)CC2)C1 | – | RNA-seq, measured: mouse SHB homolog | mouse, HT-1376 xenograft, whole blood | dose not given, PRC2 target gene | reference: vehicle | log2 fold change | 1.17
O=C1NC2(CC2)COc2ncc(F)cc2[C@H]2COCCN2c2ccn3ncc1c3n2 | CHL | – | – | 300 µg/mL, 4 h, with rat liver S9 | – | structural aberrations with gaps | 0.3%
COc1cccc(OC)c1-c1cc(C(=O)NC2(C(=O)O)C3CC4CC(C3)CC2C4)nn1-c1ccc(C(=O)N(C)CCOCCOCCN(C)C(=O)[C@H](CCCCNC(=O)[C@H](CC(C)C)NC(=O)C2OC2C(=O)O)NC(=O)CN2CCN(CC(=O)[O-])CCN(CC(=O)[O-])CCN(CC(=O)[O-])CC2)cc1C(C)C.[177Lu+3] (mixture of isomers) | – | – | mouse HT-29 xenograft | 72 h, biodistribution | reference: tumour over small intestine | tumour-to-small intestine ratio | 18.8
COc1ccnc(C(=O)N[C@H]2COC(=O)[C@H](Cc3ccccc3)[C@@H](OC(=O)C(C)C)[C@H](C)OC2=O)c1O | – | – | wheat grain | -18 °C | – | storage stability of residues | 9 months
CNS(=O)(=O)Nc1nccc(Cc2c(C)c3ccc(Oc4ncccc4F)cc3oc2=O)c1F | RT-112/84 | cell viability, inhibitor, CellTiter-Glo | – | 7 days | – | IC50 | 8.16 nM
C=C(NC(=O)c1csc(-c2nc3c(cc2O)-c2nc(cs2)C(=O)NC(C(C)O)C(=O)NC(=C(C)OC)c2nc(cs2)C(=O)NC2c4nc(cs4)C(=O)NC(COC(=O)c4c5c6c(cccc6n4O)COC(=O)C(OC4CC(C)(O)C(N(C)C)C(C)O4)C2OC5)c2nc-3cs2)n1)C(N)=O (centres unmarked) | – | – | Sprague-Dawley rat, plasma | intravenous, 2 mg/kg, single dose, infusion | – | Tmax | 4.8 min
Cc1ccc(CN2C(=O)/C(=N\c3ccc(Cl)cc3Br)c3ccccc32)cc1 | – | – | mouse, blood | 200 mg/kg | – | MCV | 46.73 ± 0.42 fL
O=C(NNCc1ccccc1)C1(C(F)(F)F)CCC1 | – | – | PBS | 2 h, pH 7.4, 25 °C, 2% DMSO | – | solubility | 366 µM

Excerpt of the above:
SMILES | target or system | test | system | setting | how to read | endpoint | value
C=C(NC(=O)c1csc(-c2nc3c(cc2O)-c2nc(cs2)C(=O)NC(C(C)O)C(=O)NC(=C(C)OC)c2nc(cs2)C(=O)NC2c4nc(cs4)C(=O)NC(COC(=O)c4c5c6c(cccc6n4O)COC(=O)C(OC4CC(C)(O)C(N(C)C)C(C)O4)C2OC5)c2nc-3cs2)n1)C(N)=O (centres unmarked) | – | – | Sprague-Dawley rat, plasma | intravenous, 2 mg/kg, single dose, infusion | – | Tmax | 4.8 min
O=C(c1ccccc1)N1C(c2ccc(OCC3CCN(CCCF)C3)cc2)c2ccc(O)cc2CC12CC2 (centres unmarked) | – | – | C57BL/6J mice, plasma | oral, 25 mg/kg | – | AUC extrapolated percentage | 1.33% and 0.303%
CN(C)S(=O)(=O)c1ccc(S(=O)(=O)N2CCC(n3c(=O)[nH]c4ccccc43)CC2)cc1 | – | HPLC | soya oil | 24 h, 20 °C | – | solubility | < 2 µg/mL
CC(C)OCCOCc1ccc(OCC(O)CN(N=O)C(C)C)cc1 (centres unmarked) | Salmonella typhimurium | Ames test | TA100 | 158 µg/plate, 30 % hamster S9 | reference: solvent control | revertant fold increase | 1.7 fold
